Published values of several laboratories.
Lines come from different studies, so protocols differ.

SMILES	assay	test system	setting	half-life
CC(C)(O)c1ncc([S@](N)(=O)=NC(=O)Nc2c3c(cc4c2CCC4)CCC3)s1	–	healthy human, fasted	oral, 300 mg single dose, capsule formulation	19.9 h
NC(=O)/C=C/c1cccc(S(=O)(=O)Nc2ccccc2)c1	–	human, mild liver dysfunction, plasma	intravenous, 400 mg/m^2 belinostat, 30 min infusion, cycle 1 day -7	7.67 h
Cc1ccc(OCC(=O)N(Cc2cccs2)c2ccn[nH]2)cc1	–	female Sprague-Dawley rat, plasma	intravenous, 1 mg/kg, single dose	0.3 h
O=C(O)/C=C/c1cccc(S(=O)(=O)Nc2ccccc2)c1	–	human, moderate liver dysfunction, plasma	intravenous, 400 mg/m^2 belinostat, 30 min infusion, cycle 1 day -7	2.95 h
C[Si]1(C[C@@H](CN)CC(=O)O)CCCC1	–	male Sprague-Dawley rat, plasma	oral, 30 mg/kg, single dose	2.6 h
O=C(CCc1ccc(CNC(C(=O)OC2CCCC2)C2CCCCC2)cn1)NO (stereo not drawn)	–	human, plasma	oral, 40 mg, single dose, geometric mean	0.429 h
N#Cc1cnc2cc(OCC3CCNCC3)c(F)cc2c1Nc1cc(F)c(OCc2cccc(Cl)n2)cc1Cl	–	male Sprague-Dawley rat, plasma	oral, 300 mg/kg	10.2 h
CONC(=O)/C=C/c1cccc(S(=O)(=O)Nc2ccccc2)c1	–	human, normal liver function, plasma	intravenous, 400 mg/m^2 belinostat, 30 min infusion, cycle 1 day -7	1.33 h
N[C@@H](COc1ccccc1C(F)(F)F)c1ccccc1	–	rat, plasma	intravenous, 5 mg/kg	1.2 h
Cn1c(=O)oc2ccc(-c3ccc(CC(C#N)NC(=O)C4CNCCCO4)c(F)c3)cc21 (stereo not drawn)	–	human, plasma	10 mg once daily, day 28, mean	25.7 h
CSCOC1C(=O)C2(C)C(OCSC)CC3OCC3(OC(C)=O)C2C(OC(=O)c2ccccc2)C2(O)CC(OC(=O)C(O)C(C=C(C)C)NC(=O)OC(C)(C)C)C(C)=C1C2(C)C (stereo not drawn)	–	female Sprague-Dawley rat, plasma	intravenous, 1 mg/kg	7.9 h
C[Si](C)(C)C[C@@H](CN)CC(=O)O	–	male Sprague-Dawley rat, plasma	oral, 30 mg/kg, single dose	2.52 h
CC(C)C[C@@H](CC(=O)N[C@@H](CO)C(=O)N1CCC[C@H]1C(=O)N[C@H](C(N)=O)[C@@H](C)O)NC(=O)[C@H](Cc1cccc2ccccc12)NC(=O)[C@H](CNC(=O)c1ccc2cc(F)ccc2c1)NC(=O)[C@H](CO)NC(=O)C1CCNCC1	chemical stability	male human, serum	1 mM, pH 7.4	> 24 h
O=C(O)c1cccc(S(=O)(=O)Nc2ccccc2)c1	–	human, moderate liver dysfunction, plasma	intravenous, 400 mg/m^2 belinostat, 30 min infusion, cycle 1 day -7	3.72 h
C#Cc1cccc(Nc2ncnc3cc(OC)c(OCCCN4CCOCC4)cc23)c1	metabolic stability	monkey, liver microsomes	1 µM, pH 7.4	0.0835 h

For quick reference, copied from above:
SMILES	assay	test system	setting	half-life
N#Cc1cnc2cc(OCC3CCNCC3)c(F)cc2c1Nc1cc(F)c(OCc2cccc(Cl)n2)cc1Cl	–	male Sprague-Dawley rat, plasma	oral, 300 mg/kg	10.2 h
